{"data": "Published values pooled from the literature", "note": "Protocols differ between the studies behind these lines. ± gives the spread as reported."}
{"Compound": "N=C(N)NCCC[C@@H]1NC(=O)[C@H](Cc2csc3ccccc23)NC(=O)[C@@H](Cc2ccccc2)NC(=O)[C@H](Cc2ccccc2)NC(=O)[C@H](CCC(=O)NCCOCCOCC(=O)N[C@@H](CCCCNC(=O)c2ccc3c(c2)C(=O)OC32c3ccc4cc(O)ccc4c3Oc3c2ccc2cc(O)ccc32)C(N)=O)NC(=O)[C@@H](CCCNC(=N)N)NC(=O)[C@H](CCCNC(=N)N)NC(=O)[C@@H](CCCNC(=N)N)NC1=O", "cell line": "HeLa", "setting": "0.5 µM, 1% FBS", "scale": "baseline: CPP12", "quantity": "endosomal escape efficiency", "value": "198 ± 7%"}
{"Compound": "COc1cccc(CSc2nc3cc4ccccc4cc3c(=O)n2Cc2ccccc2)c1", "cell line": "BGM", "assay": "morphology and trypan blue", "setting": "72 h", "quantity": "maximum non-toxic concentration", "value": "65 µg/mL"}
{"Compound": "CCc1ccc(Nc2c(NC3CCN(Cc4ccccc4)CC3)c(=O)c2=O)cc1", "cell line": "SH-SY5Y", "assay": "MTT", "setting": "12.5 µM, 24 h", "quantity": "viability", "value": "67.6 ± 2.11%"}
{"Compound": "COC(=O)C1=CO[C@@H](O)[C@@H]2C(Cn3cc(C4(O)CCCCC4)nn3)=CC[C@H]12", "cell line": "SK-N-SH", "assay": "MTT", "setting": "0.15 µM, 24 h, with: H2O2 250 µM", "quantity": "viability", "value": "79.9 ± 0.5%"}
{"Compound": "CCn1c(SCCCN2C(=O)c3ccccc3C2=O)nc2cc3ccccc3cc2c1=O", "cell line": "BGM", "assay": "morphology and trypan blue", "setting": "72 h", "quantity": "maximum non-toxic concentration", "value": "25 µg/mL"}
{"Compound": "O=C(CCCC[C@@H]1SC[C@@H]2NC(=O)N[C@@H]21)NCCCC[C@@H](NC(=O)[C@@H](Cc1ccccc1)NC(=O)[C@@H](Cc1ccccc1)NC(=O)Cc1ccc2ccccc2c1)C(=O)N[C@H](Cc1ccc(OP(=O)(O)O)cc1)C(=O)O", "cell line": "HS5", "assay": "dephosphorylation, measured: D1-B", "setting": "8 h", "quantity": "conversion", "value": "39.5%"}
{"Compound": "CC(C)C[C@H](NC(=O)[C@H](CCCCN)NC(=O)[C@H](CC(C)C)NC(=O)[C@H](CC(C)C)NC(=O)[C@H](CCCCN)NC(=O)[C@H](CCCCN)NC(=O)[C@H](CC(C)C)NC(=O)[C@H](CC(C)C)NC(=O)[C@H](CCCCN)NC(=O)[C@H](CC(C)C)NC(=O)[C@H](CC(C)C)NC(=O)[C@H](CCCCN)NC(=O)[C@H](CCCCN)NC(=O)[C@H](CC(C)C)NC(=O)[C@@H](N)CSSC[C@H](N)C(=O)N[C@@H](CC(C)C)C(=O)N[C@@H](Cc1c[nH]cn1)C(=O)N[C@@H](CCC(=O)O)C(=O)N[C@@H](CC(C)C)C(=O)N[C@@H](CC(C)C)C(=O)N[C@@H](CCC(=O)O)C(=O)N[C@@H](Cc1c[nH]cn1)C(=O)N[C@@H](CC(C)C)C(=O)N[C@@H](Cc1c[nH]cn1)C(=O)N[C@@H](CCC(=O)O)C(=O)N[C@@H](CC(C)C)C(=O)N[C@@H](CC(C)C)C(=O)N[C@@H](CCC(=O)O)C(=O)N[C@@H](Cc1c[nH]cn1)C(N)=O)C(N)=O", "cell line": "mouse erythrocytes", "assay": "hemolysis", "setting": "1 h, 37 °C", "quantity": "HC10", "value": "~85.5 µM"}
{"Compound": "C[C@@H](O)[C@H](NC(=O)[C@@H]1CCCN1C(=O)CNC(=O)[C@@H]1CC(=O)NCC(=O)N[C@H]2Cc3cn(c4ccccc34)-c3cc(ccc3O)C[C@H](NC2=O)C(=O)NCC(=O)N[C@@H](CO)C(=O)N[C@@H](CCC(N)=O)C(=O)N[C@@H](Cc2c[nH]c3ccccc23)C(=O)N1)C(=O)NCC(=O)N[C@@H](CCC(N)=O)C(=O)N[C@@H](CCCNC(=N)N)C(=O)N[C@@H](CC(=O)O)C(=O)O", "cell line": "NCI60 panel", "assay": "cell growth", "setting": "concentration not given, single high dose", "quantity": "activity", "value": "inactive"}
{"Compound": "CSCC[C@H](NC(=O)CCCCCNC(=S)Nc1ccc2c(c1)C(=O)OC21c2ccc(O)cc2Oc2cc(O)ccc21)C(=O)N[C@@H](C)C(=O)N[C@@H](CC(N)=O)C(=O)N[C@@H](CC(C)C)C(=O)NCC(=O)N[C@@H](Cc1ccc(O)cc1)C(=O)N[C@@H](Cc1c[nH]c2ccccc12)C(=O)N[C@@H](CC(C)C)C(=O)N[C@@H](CC(C)C)C(=O)N[C@@H](C)C(=O)N[C@@H](CC(C)C)C(=O)N[C@@H](Cc1ccccc1)C(=O)N[C@H](C(=O)N[C@H](C(=O)N[C@@H](Cc1ccc(O)cc1)C(=O)N[C@@H](Cc1c[nH]c2ccccc12)C(=O)N[C@H](C(=O)N[C@@H](CC(=O)O)C(=O)N[C@@H](CC(C)C)C(=O)NCC(=O)N[C@@H](CC(C)C)C(=O)N[C@H](C(=O)N[C@@H](CCCCN)C(=O)N[C@@H](CCCCN)C(=O)N[C@@H](CCCNC(=N)N)C(=O)N1CCC[C@H]1C(=O)N[C@@H](CCCCN)C(=O)N1CCC[C@H]1C(=O)O)C(C)C)[C@@H](C)O)[C@@H](C)O)C(C)C", "cell line": "human PBMCs", "assay": "imaging flow cytometry, FITC-labelled", "setting": "1 µM, 30 min", "scale": "baseline: CD19+ B cells", "quantity": "cells with surface-bound peptide", "value": "50.3%"}
{"Compound": "CC[C@H](C)[C@H](NC(=O)[C@H](CCC(=O)O)NC(=O)CNC(=O)[C@@H](NC(=O)[C@H](CC(C)C)NC(=O)[C@H](CC(C)C)NC(=O)[C@H](CC(C)C)NC(=O)[C@H](CC(C)C)NC(=O)[C@H](CS)NC(=O)[C@H](CO)NC(=O)[C@H](Cc1ccccc1)NC(=O)CNC(=O)[C@H](CCCNC(=N)N)NC(=O)[C@@H]1CCCN1C(=O)[C@H](C)NC(=O)[C@H](CCSC)NC(=O)CNC(=O)CNC(=O)[C@H](Cc1ccccc1)NC(=O)[C@H](CCCCN)NC(=O)[C@H](Cc1c(C)cc(O)cc1C)NC(=O)[C@H](N)CCCNC(=N)N)[C@@H](C)O)C(=O)N[C@@H](CC(=O)O)C(=O)N[C@@H](CC(C)C)C(=O)N1CCC[C@H]1C(=O)N[C@H](C(=O)N[C@@H](CCCCN)C(=O)N[C@@H](CCCNC(=N)N)C(=O)N[C@@H](CCCNC(=N)N)C(=O)N[C@@H](C)C(N)=O)C(C)C", "cell line": "bEnd.3", "setting": "10 µM, 2 h, FITC-labelled", "scale": "baseline: SS-31", "quantity": "cellular uptake", "value": "4.2 fold"}
{"Compound": "Nc1cccc[n+]1Cc1cccc(C[n+]2ccccc2N)c1", "cell line": "3T3-L1", "assay": "MTT", "setting": "concentration not given", "quantity": "cytotoxicity", "value": "not toxic"}
{"Compound": "CC[C@H](C)[C@H](NC(=O)CNC(=O)[C@H](CCCNC(=N)N)NC(=O)[C@H](CCCCN)NC(=O)CNC(=O)[C@H](CC(N)=O)NC(=O)CNC(=O)CNC(=O)CNC(=O)[C@H](CC(C)C)NC(=O)[C@H](C)NC(=O)CNC(=O)[C@H](Cc1c[nH]c2ccccc12)NC(=O)[C@H](Cc1ccc(O)cc1)NC(=O)CNC(=O)[C@H](CCCNC(=N)N)NC(=O)[C@H](CCSC)NC(=O)CNC(=O)[C@H](CCCCN)NC(=O)[C@H](CC(N)=O)NC(=O)[C@H](Cc1ccccc1)NC(=O)[C@H](CCCCN)NC(=O)[C@@H](N)CC(N)=O)C(=O)N[C@@H](CCSC)C(=O)NCC(=O)N[C@@H](Cc1ccc(O)cc1)C(=O)N[C@@H](CC(=O)O)C(=O)O", "cell line": "3T3 fibroblasts", "assay": "MTT", "setting": "1 nM to 10 µM, 24 h", "quantity": "cytotoxicity", "value": "not toxic"}
{"Compound": "O=c1c(NCc2ccccc2)c(NC2CCN(Cc3ccccc3)CC2)c1=O", "cell line": "SH-SY5Y", "assay": "MTT", "setting": "12.5 µM, 24 h", "quantity": "viability", "value": "114 ± 1.64%"}
